Published values pooled from the literature.
A part holds a random share of what one study measured.

Study 1
Target: Histone acetyltransferase KAT6A, winged helix 1, GST fusion (KAT6A, Homo sapiens, UniProt Q92794, residues 1-85)
Technique: protein binding microarray
Form: double-stranded DNA, one strand shown
Matrix: in vitro
Tested at: not given
Setting: 8-mer, flanks averaged, mean of 2 arrays, mostly near background
Relative to: not given
Reading: higher = stronger binding
Construct (chain): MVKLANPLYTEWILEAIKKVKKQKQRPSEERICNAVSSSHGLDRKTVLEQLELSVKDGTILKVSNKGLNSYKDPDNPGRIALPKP
Strand	E-score
AGCTGAAA	-0.117
AGTAGGGA	-0.0685
AAGTATCT	-0.231
CTTCCACC	-0.109
CACGTGAC	-0.171
AACGAGCC	-0.0419
CATGGTCG	0.0118
AGCCTTAC	-0.0938

Study 2
Target: Replicase polyprotein 1ab, main protease (rep, Severe acute respiratory syndrome coronavirus 2, UniProt P0DTD1)
Effect on: enzyme activity
Action: inhibitor
Tested at: 20 µM
Setting: hit confirmation, with DTT
SMILES	inhibition [%]
Cc1ccc(S(=O)(=O)/C=C/C#N)cc1	-12.5
Sc1nnnn1-c1ccccc1	78.4
CO/N=C(\C(=O)N[C@@H]1C(=O)N2C(C(=O)O)=C(CSC(=O)c3ccco3)CS[C@H]12)c1csc(N)n1.Cl	-4.2
CC[n+]1c(-c2ccccc2)c2cc(N)ccc2c2ccc(N)cc21	30

Study 3
Cell line: HEK-293T
Effect on: pseudovirus infection
Technique: FDA-approved drug library screen
Organism: VSV pseudotyped with SARS-CoV-2 spike
Tested at: 10 µM
Time: 16 h
Relative to: vehicle-treated
Compound	GFP-positive cells [%]
CC(C)N1CCN(c2ccc(OCC3COC(Cn4cncn4)(c4ccc(Cl)cc4Cl)O3)cc2)CC1 (centres unmarked)	63.7
CCOC(=O)C(C)(C)Oc1ccc(Cl)cc1	95.2
CCN(CC)C(=O)N1CCN(C)CC1	88.9

Study 4
Target: RNA binding protein fox-1 homolog 2, RRM domain, GST-SBP tag (RBFOX2, Homo sapiens, UniProt O43251-10, residues 100-194)
Technique: RNA Bind-n-Seq
Form: RNA
Matrix: in vitro
Tested at: 365 nM
Setting: natural RNA segment, single round, ends assumed
Relative to: no-protein control
Reading: higher = stronger binding
All sequences stand within: GGGAGUUCUACAGUCCGACGAUC … UGGAAUUCUCGGGUGCCAA
Target sequence (chain): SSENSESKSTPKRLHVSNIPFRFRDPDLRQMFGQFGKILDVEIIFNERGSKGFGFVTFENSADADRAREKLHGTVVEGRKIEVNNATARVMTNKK
Strand	RBNS enrichment (R)
GGGUUUUAGGUGUCUCUCUUUGUGUUUUCUGUGGUUUGUGAUGCACGUGCGCAGGAAGGGCUCCUCUUAGAGAAGCAGCCAAACUGUGAAGCACUAAGCUGACCCUGCUU	0.867
UUGAGCUCCACCUCCUUUCCAAGUGAGCACUCAGUGUUGAAUCACAGUUACAACCCACUGGGGCUGGUGGGAGAUGCGUUGUAUGGGACUGGAAGCAAGAGGUUCAUUCA	0.757
CUUAUUCUUGGUUCAUCAUACUCCAGACCAUGUAUCCUCUGGUGUCCUGGCUGGAAGAAGGGGCGUGUGGCCAUGCAGCCCGCUCUCCCAAGCUGUCCCAGCAAAUGGGC	0.336
UCAAAGAGACAAGGGACUCGUUUCUACCCCUGGUAAUGCGAGGUGCUGCUUCUGUGUGUCAAGGCUUCAACCAGGUCCCUCUUCCUCUGACUCUGGCACCAUGCCAGCUG	0.339
CACCGCAGAGCCGAGGCGGUGUUGUCAGGGCUAAUGUGAAAUCUCUUCCCGUGGCGCCGAUCCUCUGACUCUAUAGCGCCAGCUUGGACAGAUUGAGGUCUCUGUGGCUU	0.712
UAAAGGUCAAAAAAGCAAUCCAACCCACUGCAGAAGCUCUUUUUGAGCACUUGGUGGCAUCAGAGCAGGAGGAGCCCCAGAGCCACCUCUGGUGUCCCCCCAGGCUACCU	0.389
CGAUCAUCAAGAAAUACUUUCGAAAUUUCAUUUUCCUUCAGAAUAUCUUAAGAGUGCUAAAUUUUUAACUGCCUUUUUGUCGAGUCAAACUGUGGGAUUCUGAUUUGUAU	0.477
AGUAUGAGCCCAUCUCACUGGGCUAUCUGACUCUCCACCCUCCUUGUUAGUCUCUGAGGAACAGUGCAACUCCUUCGAACAUGAUUUAGAAAGAGGGCAUUCAUGCAUAG	0.41

Study 5
Target: Interferon regulatory factor 5, full length, phosphomimetic (IRF5, Homo sapiens, UniProt Q13568-2, residues 1-514, S451D/S453D/S456D/S462D)
Technique: protein-binding microarray
Form: double-stranded DNA, one strand shown
Matrix: in vitro
Tested at: 940 nM top
Setting: 60-bp whole probe
Added: salmon DNA 0.4 mg/ml
Relative to: random background probes
Reading: higher = stronger binding
All sequences stand within: GCCTAGCAC … GTGCTAGGTCTTGATTCGCTTGACGCTGCTG
Strand	fitted relative affinity [z-score]
TTAGGACTGCGTCTCCTTTA	-0.298
CTGCGGTGAGTGCGTTATCG	-0.437
TCATTTTTTTTCATCATACT	1.59
TCATAGCTTCCTTTCGCACT	0.679
TCAAATTCTCTTTTCACACT	1.13
TTAGGTTTCCTTTTCCATTA	2.65
CAAGTTTTTATTTTCTGAAT	1.24
TTAGCTTTCGGTCTCGGTTA	7.34

Study 6
Target: Replicase polyprotein 1ab, polymerase (rep, Severe acute respiratory syndrome coronavirus 2, UniProt P0DTD1)
Effect on: enzyme activity
Action: inhibitor
Tested at: 20 µM
Structure (SMILES)	inhibition
COc1ccc2c(c1)C(C(=O)N(Cc1ccc(N(C)C)cc1)c1ccc(C(C)C)cc1)CCC2 (centres unmarked)	-7.62%
Cc1ccc(-c2nn(C(C)(C)CNC(=O)c3ncccc3C)c3ncnc(N)c23)cc1	-1.15%
C[N+](C)(C)CC#CCN1CCCC1=O	0.17%
CC(C)c1nc(N(C)S(C)(=O)=O)nc(-c2ccc(F)cc2)c1/C=C/[C@@H](O)C[C@@H](O)CC(=O)O	3.55%
CCc1nc(-c2cccc(C)c2)c(-c2ccnc(NC(=O)c3ccccc3)c2)s1	-1.79%
CNC(=O)[C@@H](c1ccccc1)N1CCc2cc(OC)c(OC)cc2[C@@H]1CCc1ccc(C(F)(F)F)cc1	-1.39%
CCOC(=O)[C@H](CCc1ccccc1)N[C@@H](C)C(=O)N1Cc2ccccc2C[C@H]1C(=O)O	2.09%
CCN(CC)c1ccc(C(=C2C=CC(=[N+](CC)CC)C=C2)c2ccccc2)cc1	-2.67%
Cn1nnnc1SCC1=C(C(=O)O)N2C(=O)[C@@H](NC(=O)[C@H](O)c3ccccc3)[C@H]2SC1	0.9%
CCC(=O)OCC(=O)[C@@]1(OC(=O)CC)[C@H](C)C[C@H]2[C@H]3[C@H]([C@@H](O)C[C@@]21C)[C@@]1(C)C=CC(=O)C=C1C[C@H]3Cl	-0.42%
NS(=O)(=O)c1cc(Cl)c(Cl)c(S(N)(=O)=O)c1	-1.32%
C/C=C/C=C/C(=O)O	-0.36%
O=C(N[C@H]1CCN(C(=O)c2cc(C(F)(F)F)cc(C(F)(F)F)c2)[C@H](Cc2ccc(Cl)cc2)C1)c1ccnc2ccccc12	0.24%
CN(C)CCCOc1nn(Cc2ccccc2)c2ccccc12	-4.82%
Cn1cnc(N)c2ncnc1-2	-0.09%
O=C(O)CCC(=O)O	1.58%
COc1cc(N2CCC(N3CCN(C)CC3)CC2)ccc1Nc1ncnc(Nc2ccccc2S(=O)(=O)C(C)C)n1	-4.52%
CCN(CC)CCNC(=O)c1ccc(NC(C)=O)cc1	4.05%
CCNC(=O)/C=C/c1cccc(Br)c1	11.3%
CCc1oc2ccccc2c1C(=O)c1cc(Br)c(O)c(Br)c1	17.5%
COc1cc2c(Oc3ccc(NC(=O)C4(C(=O)Nc5ccc(F)cc5)CC4)cc3F)ccnc2cc1OCCCN1CCOCC1	-1.2%
C[C@H](NC[C@H](O)CP(=O)(O)Cc1ccccc1)c1ccc(Cl)c(Cl)c1	-0.64%
CC(C)NC(=O)c1ccc(C#Cc2ccncc2)cn1	-1.49%
CN1CCC(c2c[nH]c3ccc(O)cc23)CC1	-2.74%
O=C(NC(Cc1cc(=O)[nH]c2ccccc12)C(=O)O)c1ccc(Cl)cc1 (centres unmarked)	-5.79%

Repeated from above (study 4):
Strand	RBNS enrichment (R)
CUUAUUCUUGGUUCAUCAUACUCCAGACCAUGUAUCCUCUGGUGUCCUGGCUGGAAGAAGGGGCGUGUGGCCAUGCAGCCCGCUCUCCCAAGCUGUCCCAGCAAAUGGGC	0.336
UCAAAGAGACAAGGGACUCGUUUCUACCCCUGGUAAUGCGAGGUGCUGCUUCUGUGUGUCAAGGCUUCAACCAGGUCCCUCUUCCUCUGACUCUGGCACCAUGCCAGCUG	0.339
CACCGCAGAGCCGAGGCGGUGUUGUCAGGGCUAAUGUGAAAUCUCUUCCCGUGGCGCCGAUCCUCUGACUCUAUAGCGCCAGCUUGGACAGAUUGAGGUCUCUGUGGCUU	0.712
UAAAGGUCAAAAAAGCAAUCCAACCCACUGCAGAAGCUCUUUUUGAGCACUUGGUGGCAUCAGAGCAGGAGGAGCCCCAGAGCCACCUCUGGUGUCCCCCCAGGCUACCU	0.389
CGAUCAUCAAGAAAUACUUUCGAAAUUUCAUUUUCCUUCAGAAUAUCUUAAGAGUGCUAAAUUUUUAACUGCCUUUUUGUCGAGUCAAACUGUGGGAUUCUGAUUUGUAU	0.477
AGUAUGAGCCCAUCUCACUGGGCUAUCUGACUCUCCACCCUCCUUGUUAGUCUCUGAGGAACAGUGCAACUCCUUCGAACAUGAUUUAGAAAGAGGGCAUUCAUGCAUAG	0.41
